Assay results collected from several papers.
Every numbered part comes from another study and shows a few of its results, in no order. Substitutions count along the parent as printed.

Series 1
Target: Interferon regulatory factor 3, full length, phosphomimetic (IRF3, Homo sapiens, UniProt Q14653, residues 1-427, S386D/S396D/S398D/S402D/T404D/S405D)
Method: protein-binding microarray
Molecule type: double-stranded DNA, one strand shown
Matrix: in vitro
Tested at: 2540 nM top
Setting: 60-bp whole probe
With: salmon DNA 0.4 mg/ml
Baseline: random background probes
Reading: higher = stronger binding
Quantity: fitted relative affinity
All sequences stand within: GCCTAGCAC … GTCTTGATTCGCTTGACGCTGCTG
Residues (chain): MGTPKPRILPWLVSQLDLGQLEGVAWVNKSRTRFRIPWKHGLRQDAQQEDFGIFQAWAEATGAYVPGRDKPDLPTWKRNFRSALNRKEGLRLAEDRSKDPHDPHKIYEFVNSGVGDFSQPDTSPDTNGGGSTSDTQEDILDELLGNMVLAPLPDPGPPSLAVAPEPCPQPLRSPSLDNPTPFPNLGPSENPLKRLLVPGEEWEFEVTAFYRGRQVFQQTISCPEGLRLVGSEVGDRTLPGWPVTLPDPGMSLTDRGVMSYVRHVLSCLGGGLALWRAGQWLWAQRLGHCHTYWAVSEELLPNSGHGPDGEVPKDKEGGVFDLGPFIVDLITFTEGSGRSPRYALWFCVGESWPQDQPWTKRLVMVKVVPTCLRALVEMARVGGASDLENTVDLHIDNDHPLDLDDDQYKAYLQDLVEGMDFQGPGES
Oligonucleotide = GACGGACTGCTAGTGCTGACGTGCTAG; value = -0.835 z-score
Oligonucleotide = TCACTCCTATCTTATGATACTGTGCTA; value = 0.977 z-score
Oligonucleotide = AAGTGTATATACTATATGCATGTGCTA; value = 0.0229 z-score
Oligonucleotide = TTCACTTTCTTTAACATATTGTGCTAG; value = 2.75 z-score
Oligonucleotide = TTAGATTTCCGGACTGGATTAGTGCTA; value = 1.34 z-score

Series 2
Target: CCND2, cyclin fold, Cln2 fusion (human)
Method: yeast growth competition, sequencing
Matrix: yeast
Setting: weak parent motif
Baseline: not given
Reading: higher = stronger binding
Quantity: normalised enrichment score
Parent: GMNC docking peptide (human); KNAKRNLSSEFAN; partner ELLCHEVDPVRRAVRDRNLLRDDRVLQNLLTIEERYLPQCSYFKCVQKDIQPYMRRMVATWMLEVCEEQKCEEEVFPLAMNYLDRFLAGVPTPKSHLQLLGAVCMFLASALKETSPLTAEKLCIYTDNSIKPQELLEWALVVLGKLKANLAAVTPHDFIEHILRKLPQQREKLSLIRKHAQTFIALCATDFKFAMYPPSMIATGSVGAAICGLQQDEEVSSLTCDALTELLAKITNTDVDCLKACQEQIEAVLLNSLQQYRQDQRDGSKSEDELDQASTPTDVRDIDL
Variant = KNAKRNLSSNFAN [E10N]; value = -0.311
Variant = KNQKRNLSSEFAN [A3Q]; value = 0.0588
Variant = KNAKRNLGSEFAN [S8G]; value = 0.291

Series 3
Target: RNA binding protein fox-1 homolog 2, RRM domain, GST-SBP tag (RBFOX2, Homo sapiens, UniProt O43251-10, residues 100-194)
Method: RNA Bind-n-Seq
Molecule type: RNA
Matrix: in vitro
Tested at: 365 nM
Setting: natural RNA segment, single round, ends assumed
Baseline: no-protein control
Reading: higher = stronger binding
Quantity: RBNS enrichment (R)
Target sequence (chain): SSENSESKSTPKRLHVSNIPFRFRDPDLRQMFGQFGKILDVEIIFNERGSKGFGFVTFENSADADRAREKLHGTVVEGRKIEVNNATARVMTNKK
Oligonucleotide = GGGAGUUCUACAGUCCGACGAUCGAGAAAAGAGGAAACUUGGGGGGGGCGGAGUUUCCCCCACCCAAUUACCUAGCAGGAGUCGUGGAAAGGAUGGCGUCUGAUCUGCACGAUGACACCACUGAAUGUUUAGGUGGAAUUCUCGGGUGCCAA; value = 9.74
Oligonucleotide = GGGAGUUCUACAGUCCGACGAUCAUCAAACUGUGGUGUAAAUAGAUCCUCAGUGAAUUCUGGUAUUCAGACUCUGUUCCACUAGUGAAUGAACCAUUUUCUAAACGUUUCCCUUUGACUUUUUUAUUUAUUGAUGGAAUUCUCGGGUGCCAA; value = 0.868
Oligonucleotide = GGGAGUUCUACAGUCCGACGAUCUGAAGACUCUGCAUCUCACUGAAAAUAUCAGAAUAUUCAUGUAUUUUCCUUGUCCUUGAGUUUUCCUAUGAAAGAAAUAUAUUUUGUUAGAUUUGAAUUAUCGAGGCAUUUGGAAUUCUCGGGUGCCAA; value = 0.681
Oligonucleotide = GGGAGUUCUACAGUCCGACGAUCCAAAAACAGAGAGCAAGCCCGAGGAGGAGACUGGUGACUUUCCUGUGUCCUCAGCUAACAAAGGCAGGACUCCAGCUGGACUUCUGCAGCUUCCUUCCGAGUCUCCCUAGUGGAAUUCUCGGGUGCCAA; value = 0.172
Oligonucleotide = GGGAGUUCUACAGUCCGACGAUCUUAGAAAGCCCGGUGUUUUUCUGUGAUAUUAGAUGUCCUCCGAGCACAGCCCACUUGGAUUUGUUUGUUUGGUUUUGCCUUGAGACUGGGUCUCACUAUACAGAGCAGCCUGGAAUUCUCGGGUGCCAA; value = 1.3

Mixed results
Substance = PhoQ, residues 284 288 289 292 302 303 TTCLQL; target = PhoP, residues 12 14 15 18 19 SPWRL (Escherichia coli, UniProt P23836); assay = Sort-seq, item: YFP reporter; system = E. coli; conditions = PhoQ-PhoP variant library, with: 10 µM Mg2+; scale = baseline: high Mg2+ state, higher = stronger signaling; quantity = fold induction; value = 2.03

A few entries again (series 1):
Oligonucleotide = TTCACTTTCTTTAACATATTGTGCTAG; value = 2.75 z-score
Oligonucleotide = TTAGATTTCCGGACTGGATTAGTGCTA; value = 1.34 z-score
